Measured values collected from several papers.
Each line is one published result; not all experiments were run side by side. ± marks the error that the study gave.
Organism: Pseudomonas aeruginosa

Compound	technique	strain	medium	time	temperature	MIC
CC[C@H](C)[C@H](NC(=O)[C@H](CC(=O)O)NC(=O)[C@H](Cc1ccccc1)NC(=O)[C@H](CC(C)C)NC(=O)CN)C(=O)N[C@H](C(=O)N[C@@H](CCCCN)C(=O)N[C@@H](CCCCN)C(=O)N[C@H](C(=O)N[C@H](C(=O)N[C@@H](CCCCN)C(=O)N[C@@H](CC(C)C)C(=O)N[C@@H](CC(C)C)C(=O)N[C@@H](CCCCN)C(N)=O)C(C)C)C(C)C)C(C)C		ATCC 19606	CAMHB	18 h	37 °C	> 20 µM
CC[C@H](C)CCCCC(=O)N[C@@H](CCN)C(=O)N[C@H](C(=O)N[C@@H](CCN)C(=O)N[C@H]1CCNC(=O)[C@H]([C@@H](C)O)NC(=O)[C@H](CCN)NC(=O)[C@H](CCN)NC(=O)[C@H](CC(C)C)NC(=O)[C@@H](CC(C)C)NC(=O)[C@H](CCN)NC1=O)[C@@H](C)O	broth microdilution	ATCC 27853		20 h	37 °C	0.22 to 0.43 µM
CC[C@H](C)[C@H](NC(=O)CN)C(=O)NCC(=O)N[C@@H](C)C(=O)N[C@H](C(=O)N[C@@H](CC(C)C)C(=O)N[C@@H](CCCCN)C(=O)N[C@H](C(=O)N[C@@H](CC(C)C)C(=O)N[C@H](C(=O)N[C@H](C(=O)NCC(=O)N[C@@H](CC(C)C)C(=O)N1CCC[C@H]1C(=O)N[C@@H](C)C(=O)N[C@@H](CC(C)C)C(=O)N[C@H](C(=O)N[C@@H](CO)C(=O)N[C@@H](Cc1c[nH]c2ccccc12)C(=O)N[C@H](C(=O)N[C@@H](CCCCN)C(=O)N[C@@H](CCCNC(=N)N)C(=O)N[C@@H](CCCCN)C(=O)N[C@@H](CCCNC(=N)N)C(=O)N[C@@H](CCC(N)=O)C(=O)N[C@@H](CCC(N)=O)C(N)=O)[C@@H](C)CC)[C@@H](C)CC)[C@@H](C)O)[C@@H](C)O)C(C)C)C(C)C	broth microdilution	KCTC 1637		16 h	37 °C	1.6 µM
CC[C@H](C)[C@H](NC(=O)[C@H](C)NC(=O)[C@H](C)NC(=O)[C@H](CC(N)=O)NC(=O)[C@H](C)NC(=O)[C@H](C)NC(=O)[C@H](C)NC(=O)[C@H](CCCNC(=N)N)NC(=O)[C@H](CC(C)C)NC(=O)[C@@H](NC(=O)[C@H](CCC(=O)O)NC(=O)[C@@H]1CCCN1C(=O)CNC(=O)[C@H](CCCCN)NC(=O)[C@H](CCC(=O)O)NC(=O)[C@H](CCCCN)NC(=O)[C@@H](NC(=O)[C@H](Cc1ccccc1)NC(=O)[C@H](CC(=O)O)NC(=O)[C@H](CCCCN)NC(=O)[C@H](C)NC(=O)[C@H](CCCCN)NC(=O)[C@H](CC(N)=O)NC(=O)[C@H](CC(C)C)NC(=O)[C@H](Cc1c[nH]c2ccccc12)NC(=O)[C@H](CC(=O)O)NC(=O)[C@H](CCCCN)NC(=O)[C@H](Cc1c[nH]c2ccccc12)NC(=O)CN)[C@@H](C)CC)[C@@H](C)CC)C(=O)N[C@@H](CC(N)=O)C(=O)O	broth microdilution	ATCC 27853		20 h	37 °C	11.8 to 23.7 µM
CC[C@H](C)CCCCC(=O)N[C@@H](CCN)C(=O)N[C@H](C(=O)N[C@@H](CCN)C(=O)N[C@H]1CCNC(=O)[C@H]([C@@H](C)O)NC(=O)[C@H](CCN)NC(=O)[C@H](CCN)NC(=O)[C@H](CC(C)C)NC(=O)[C@@H](CC(C)C)NC(=O)[C@H](CCN)NC1=O)[C@@H](C)O		PAO1	LB medium			0.21 µM
CC(C)C[C@H](NC(=O)CN)C(=O)N[C@@H](Cc1ccccc1)C(=O)N[C@@H](CCCCN)C(=O)N[C@@H](CC(C)C)C(=O)N[C@@H](CC(C)C)C(=O)N[C@@H](CCCCN)C(=O)N[C@@H](CCCCN)C(=O)N[C@@H](CC(C)C)C(=O)N[C@@H](CC(C)C)C(=O)N[C@@H](CCCCN)C(=O)N[C@@H](CC(C)C)C(=O)N[C@@H](CC(C)C)C(=O)N[C@@H](CCCCN)C(N)=O		ATCC 19606	CAMHB	18 h	37 °C	> 20 µM
O=c1c(Cc2ccccc2)nc2ccccc2n1-c1ccc([N+](=O)[O-])cc1[N+](=O)[O-]		ATCC 29853				125 µg/mL
CC[C@H](C)[C@H](NC(=O)[C@H](C)NC(=O)[C@@H](NC(=O)[C@H](C)NC(=O)CNC(=O)[C@H](CCSC)NC(=O)[C@H](CCC(N)=O)NC(=O)[C@H](CC(C)C)NC(=O)[C@H](CO)NC(=O)[C@@H](N)Cc1ccc(O)cc1)[C@@H](C)O)C(=O)N[C@@H](CCCCN)C(=O)N[C@@H](CCC(N)=O)C(=O)N[C@H](C(=O)N[C@@H](CCCCN)C(=O)N[C@@H](CCCCN)C(=O)N[C@@H](CC(C)C)C(=O)N[C@@H](Cc1ccccc1)C(=O)N[C@@H](CCCCN)C(=O)N[C@@H](CCCCN)C(=O)N[C@@H](CCCCN)C(=O)NCC(=O)NCC(N)=O)C(C)C	broth microdilution	ATCC 9027		24 h	37 °C	310 µM
CC[C@H](C)[C@H](NC(=O)[C@H](Cc1c[nH]cn1)NC(=O)[C@H](Cc1c[nH]cn1)NC(=O)[C@H](Cc1ccccc1)NC(=O)[C@@H](N)Cc1ccccc1)C(=O)N[C@@H](Cc1ccccc1)C(=O)N[C@@H](CCCNC(=N)N)C(=O)NCC(=O)N[C@@H](C)C(=O)N[C@H](C(=O)N[C@@H](Cc1c[nH]cn1)C(=O)N[C@H](C(=O)NCC(=O)N[C@@H](CCCCN)C(=O)N[C@H](C(=O)N[C@H](C(=O)N[C@@H](Cc1c[nH]cn1)C(=O)N[C@@H](CCCNC(=N)N)C(=O)N[C@@H](CC(C)C)C(=O)N[C@H](C(=O)N[C@H](C(=O)NCC(N)=O)[C@@H](C)O)C(C)C)[C@@H](C)CC)[C@@H](C)O)C(C)C)C(C)C	broth microdilution	ATCC 10662		18 h	37 °C	25 µg/mL
CC[C@H](C)[C@H](N)C(=O)N[C@@H](CC(C)C)C(=O)NCC(=O)N1CCC[C@H]1C(=O)N[C@H](C(=O)N[C@@H](CC(C)C)C(=O)NCC(=O)N[C@@H](CC(C)C)C(=O)N[C@H](C(=O)N[C@@H](CO)C(=O)N[C@@H](CC(=O)O)C(=O)N[C@H](C(=O)N[C@@H](CC(C)C)C(=O)N[C@@H](CC(=O)O)C(=O)N[C@@H](CC(=O)O)C(=O)N[C@H](C(=O)N[C@@H](CC(C)C)C(=O)NCC(=O)N[C@H](C(=O)N[C@@H](CC(C)C)C(=O)O)[C@@H](C)CC)C(C)C)[C@@H](C)O)C(C)C)C(C)C		ATCC 27853		24 h	37 °C	90 µM
CC[C@H](C)[C@H](NC(=O)[C@H](CC(=O)O)NC(=O)[C@H](Cc1ccccc1)NC(=O)[C@H](CC(C)C)NC(=O)CN)C(=O)N[C@H](C(=O)N[C@@H](CCCCN)C(=O)N[C@@H](CCCCN)C(=O)N[C@H](C(=O)N[C@H](C(=O)NCC(=O)N[C@@H](CC(C)C)C(=O)N[C@@H](CC(C)C)C(=O)N[C@@H](CCCCN)C(N)=O)C(C)C)C(C)C)C(C)C		ATCC 19606	CAMHB	18 h	37 °C	> 21 µM
O=[N+]([O-])c1ccc(-n2ccnc2)c([N+](=O)[O-])c1		ATCC 29853				125 µg/mL
CC[C@H](C)[C@H](NC(=O)CNC(=O)[C@H](CC(=O)O)NC(=O)[C@H](CCCNC(=N)N)NC(=O)[C@@H](NC(=O)[C@H](CC(N)=O)NC(=O)[C@H](CCCNC(=N)N)NC(=O)CNC(=O)[C@@H](NC(=O)[C@H](CCCCN)NC(=O)[C@H](CCC(=O)O)NC(=O)[C@@H](NC(=O)[C@H](CCCCN)NC(=O)[C@H](CCCCN)NC(=O)[C@H](Cc1ccccc1)NC(=O)[C@@H](NC(=O)[C@H](CCCCN)NC(=O)[C@H](Cc1c[nH]c2ccccc12)NC(=O)[C@@H](N)CCCCN)[C@@H](C)CC)[C@@H](C)CC)C(C)C)C(C)C)C(=O)N[C@H](C(=O)N[C@@H](CCCCN)C(=O)N[C@@H](C)C(=O)NCC(=O)N1CCC[C@H]1C(=O)N[C@@H](C)C(=O)N[C@H](C(=O)N[C@@H](CCC(N)=O)C(=O)N[C@H](C(=O)N[C@H](C(=O)NCC(=O)N[C@@H](CCC(N)=O)C(=O)N[C@@H](C)C(=O)N[C@H](C(=O)N[C@@H](CO)C(=O)N[C@H](C(=O)N[C@@H](C)C(=O)N[C@@H](CCCCN)C(N)=O)[C@@H](C)CC)[C@@H](C)O)C(C)C)C(C)C)C(C)C)[C@@H](C)CC	broth microdilution	ATCC 27850		20 h	37 °C	7 ± 0.8 µg/mL
N=C(N)NCCC[C@H](NC(=O)[C@H](Cc1c[nH]cn1)NC(=O)[C@@H]1CCCN1C(=O)[C@H](CS)NC(=O)[C@@H](N)Cc1ccc(O)cc1)C(=O)N[C@@H](CS)C(=O)O	broth microdilution	MTCC 1688			37 °C	50 µg/mL
CSCC[C@H](NC(=O)CNC(=O)[C@H](Cc1c[nH]cn1)NC(=O)[C@H](CC(C)C)NC(=O)[C@H](CO)NC(=O)[C@@H](NC(=O)[C@@H]1CCCN1C(=O)[C@H](Cc1c[nH]cn1)NC(=O)[C@H](CC(C)C)NC(=O)[C@H](CC(C)C)NC(=O)[C@H](CO)NC(=O)[C@@H](N)[C@@H](C)O)C(C)C)C(=O)N[C@@H](CC(=O)O)C(=O)N[C@@H](CC(=O)O)C(=O)N1CCC[C@H]1C(=O)N[C@@H](CCC(=O)O)C(=O)N[C@@H](CCCNC(=N)N)C(=O)N[C@@H](CCC(=O)O)C(=O)N[C@H](C(=O)N[C@@H](CC(C)C)C(=O)O)C(C)C	broth microdilution	PTCC 1074		overnight	37 °C	20 µM
CC(C)[C@H](N)C(=O)N[C@@H](CS)C(=O)N1CCC[C@H]1C(=O)N[C@@H](Cc1c[nH]cn1)C(=O)N[C@@H](CCCNC(=N)N)C(=O)N[C@@H](CS)C(=O)O	broth microdilution	MTCC 1688			37 °C	50 µg/mL
CC(C)C[C@H](NC(=O)[C@H](CCCCN)NC(=O)[C@H](Cc1ccc(O)cc1)NC(=O)[C@@H](N)CS)C(=O)N[C@H](C(=O)N1CCC[C@H]1C(=O)N[C@H](C(=O)N[C@@H](CCC(=O)O)C(=O)N1CCC[C@H]1C(=O)N[C@@H](CC(=O)O)C(=O)N[C@@H](CCCCN)C(=O)N[C@H](C(=O)N[C@@H](CCC(=O)O)C(=O)N[C@@H](CCC(=O)O)C(=O)N[C@@H](C)C(=O)N[C@@H](CC(N)=O)C(=O)N[C@@H](CCCCN)C(=O)NCC(=O)N[C@@H](CCC(=O)O)C(=O)N[C@@H](CC(N)=O)C(=O)O)C(C)C)C(C)C)C(C)C	broth microdilution	PTCC 1074		overnight	37 °C	20 µM
Cc1nc2ccccc2n(-c2ccc([N+](=O)[O-])cc2[N+](=O)[O-])c1=O		ATCC 29853				125 µg/mL

Repeated from above:
Compound	technique	strain	medium	time	temperature	MIC
Cc1nc2ccccc2n(-c2ccc([N+](=O)[O-])cc2[N+](=O)[O-])c1=O		ATCC 29853				125 µg/mL
